# Measurements collected from several papers.
# Lines come from different studies, so protocols differ. “And” joins repeats or separate records; there may be more than shown. ± marks the error that the study gave.
# CNR2: Cannabinoid receptor 2 (CNR2, Homo sapiens, UniProt P34972)
# Chain of UniProt P34972 (whole entry, looked up): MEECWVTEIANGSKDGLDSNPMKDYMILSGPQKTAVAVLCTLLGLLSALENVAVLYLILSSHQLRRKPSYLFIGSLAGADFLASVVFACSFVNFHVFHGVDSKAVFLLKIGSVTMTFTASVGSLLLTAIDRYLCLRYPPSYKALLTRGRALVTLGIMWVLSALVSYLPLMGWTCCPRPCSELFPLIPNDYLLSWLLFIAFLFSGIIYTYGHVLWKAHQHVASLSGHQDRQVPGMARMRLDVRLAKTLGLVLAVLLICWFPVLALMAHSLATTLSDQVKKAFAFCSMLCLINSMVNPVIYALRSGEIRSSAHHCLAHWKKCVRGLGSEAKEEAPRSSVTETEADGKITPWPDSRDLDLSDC
# HDAC11: Histone deacetylase 11 (HDAC11, Homo sapiens, UniProt Q96DB2)
# Chain of UniProt Q96DB2 (whole entry, looked up): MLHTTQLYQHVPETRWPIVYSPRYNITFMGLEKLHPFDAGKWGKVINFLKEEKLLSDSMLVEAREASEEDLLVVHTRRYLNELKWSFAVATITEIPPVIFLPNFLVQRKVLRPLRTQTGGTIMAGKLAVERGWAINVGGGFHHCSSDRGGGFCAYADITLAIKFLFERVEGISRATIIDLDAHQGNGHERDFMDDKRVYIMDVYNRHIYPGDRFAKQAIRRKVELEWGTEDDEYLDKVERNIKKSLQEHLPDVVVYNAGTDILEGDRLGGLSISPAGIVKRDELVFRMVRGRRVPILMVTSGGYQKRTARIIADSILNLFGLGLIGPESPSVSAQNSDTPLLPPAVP
# cah: cah (Neisseria gonorrhoeae, UniProt Q50940)
# Chain of UniProt Q50940 (whole entry, looked up): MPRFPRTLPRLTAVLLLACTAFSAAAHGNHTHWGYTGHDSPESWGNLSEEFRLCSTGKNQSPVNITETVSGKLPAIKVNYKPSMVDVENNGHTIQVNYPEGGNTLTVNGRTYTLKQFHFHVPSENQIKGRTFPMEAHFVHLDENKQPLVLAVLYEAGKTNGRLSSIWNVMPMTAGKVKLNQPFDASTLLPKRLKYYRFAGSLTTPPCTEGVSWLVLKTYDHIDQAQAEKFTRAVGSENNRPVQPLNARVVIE
# NAA40: N-alpha-acetyltransferase 40 (NAA40, Homo sapiens, UniProt Q86UY6)
# DRD1: D(1A) dopamine receptor (DRD1, Homo sapiens, UniProt P21728)
# Chain of UniProt P21728 (whole entry, looked up): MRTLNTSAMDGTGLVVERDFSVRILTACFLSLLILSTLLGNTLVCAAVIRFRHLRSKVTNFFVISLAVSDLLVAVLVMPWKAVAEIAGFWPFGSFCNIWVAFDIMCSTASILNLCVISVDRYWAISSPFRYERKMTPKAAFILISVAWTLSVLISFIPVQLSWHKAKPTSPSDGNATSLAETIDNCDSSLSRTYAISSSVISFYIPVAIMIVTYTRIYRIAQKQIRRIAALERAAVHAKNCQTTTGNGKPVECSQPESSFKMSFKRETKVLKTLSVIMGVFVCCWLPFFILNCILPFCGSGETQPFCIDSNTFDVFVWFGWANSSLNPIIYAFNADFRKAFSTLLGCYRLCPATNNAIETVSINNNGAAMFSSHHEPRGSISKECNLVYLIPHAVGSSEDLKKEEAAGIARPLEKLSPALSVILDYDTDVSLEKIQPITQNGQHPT
# MAOA: Amine oxidase [flavin-containing] A (MAOA, Homo sapiens, UniProt P21397)
# Chain of UniProt P21397 (whole entry, looked up): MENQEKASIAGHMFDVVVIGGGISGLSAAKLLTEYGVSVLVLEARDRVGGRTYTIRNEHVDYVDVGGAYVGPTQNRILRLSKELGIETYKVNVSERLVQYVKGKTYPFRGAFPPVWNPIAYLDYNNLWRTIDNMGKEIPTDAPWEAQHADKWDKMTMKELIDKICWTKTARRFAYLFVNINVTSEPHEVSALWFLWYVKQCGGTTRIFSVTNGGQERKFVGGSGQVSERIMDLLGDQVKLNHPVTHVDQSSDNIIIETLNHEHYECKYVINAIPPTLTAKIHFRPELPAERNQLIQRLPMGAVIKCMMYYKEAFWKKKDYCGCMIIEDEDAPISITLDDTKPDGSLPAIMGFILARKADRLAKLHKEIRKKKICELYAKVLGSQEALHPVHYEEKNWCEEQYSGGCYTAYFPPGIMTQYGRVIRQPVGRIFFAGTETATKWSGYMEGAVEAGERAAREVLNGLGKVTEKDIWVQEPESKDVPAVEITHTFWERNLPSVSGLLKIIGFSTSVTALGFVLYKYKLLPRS
# Chain of UniProt P30968 (whole entry, unmodified, looked up): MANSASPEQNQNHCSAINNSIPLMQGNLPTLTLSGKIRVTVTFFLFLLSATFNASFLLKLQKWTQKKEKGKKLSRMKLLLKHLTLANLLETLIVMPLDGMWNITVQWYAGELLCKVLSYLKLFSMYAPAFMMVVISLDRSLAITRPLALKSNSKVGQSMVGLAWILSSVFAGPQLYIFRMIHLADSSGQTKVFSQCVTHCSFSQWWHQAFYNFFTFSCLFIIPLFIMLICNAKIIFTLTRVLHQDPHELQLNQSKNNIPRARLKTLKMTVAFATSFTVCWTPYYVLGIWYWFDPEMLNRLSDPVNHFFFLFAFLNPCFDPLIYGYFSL
# Chain of UniProt Q92800 (whole entry, looked up): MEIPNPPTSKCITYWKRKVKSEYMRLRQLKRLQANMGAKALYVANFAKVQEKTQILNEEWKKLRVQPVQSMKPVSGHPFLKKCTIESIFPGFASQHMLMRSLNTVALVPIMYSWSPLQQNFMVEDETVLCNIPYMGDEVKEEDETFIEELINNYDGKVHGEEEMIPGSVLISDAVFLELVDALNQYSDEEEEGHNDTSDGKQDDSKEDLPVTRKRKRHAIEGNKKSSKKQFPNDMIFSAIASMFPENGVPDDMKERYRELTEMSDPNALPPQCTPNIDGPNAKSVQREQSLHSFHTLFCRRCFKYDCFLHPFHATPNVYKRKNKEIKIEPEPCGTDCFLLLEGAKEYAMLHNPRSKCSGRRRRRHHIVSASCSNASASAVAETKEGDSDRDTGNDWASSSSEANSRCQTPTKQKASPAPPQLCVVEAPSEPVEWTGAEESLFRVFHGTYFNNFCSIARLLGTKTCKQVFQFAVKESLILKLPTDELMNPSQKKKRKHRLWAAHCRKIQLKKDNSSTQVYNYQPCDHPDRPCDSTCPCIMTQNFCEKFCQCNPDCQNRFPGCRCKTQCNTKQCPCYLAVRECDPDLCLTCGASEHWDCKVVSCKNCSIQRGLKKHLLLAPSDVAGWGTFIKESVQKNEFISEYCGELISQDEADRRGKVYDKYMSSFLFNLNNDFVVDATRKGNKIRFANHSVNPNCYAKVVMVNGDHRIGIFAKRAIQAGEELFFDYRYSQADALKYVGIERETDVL
# Chain of UniProt Q16549 (whole entry, looked up): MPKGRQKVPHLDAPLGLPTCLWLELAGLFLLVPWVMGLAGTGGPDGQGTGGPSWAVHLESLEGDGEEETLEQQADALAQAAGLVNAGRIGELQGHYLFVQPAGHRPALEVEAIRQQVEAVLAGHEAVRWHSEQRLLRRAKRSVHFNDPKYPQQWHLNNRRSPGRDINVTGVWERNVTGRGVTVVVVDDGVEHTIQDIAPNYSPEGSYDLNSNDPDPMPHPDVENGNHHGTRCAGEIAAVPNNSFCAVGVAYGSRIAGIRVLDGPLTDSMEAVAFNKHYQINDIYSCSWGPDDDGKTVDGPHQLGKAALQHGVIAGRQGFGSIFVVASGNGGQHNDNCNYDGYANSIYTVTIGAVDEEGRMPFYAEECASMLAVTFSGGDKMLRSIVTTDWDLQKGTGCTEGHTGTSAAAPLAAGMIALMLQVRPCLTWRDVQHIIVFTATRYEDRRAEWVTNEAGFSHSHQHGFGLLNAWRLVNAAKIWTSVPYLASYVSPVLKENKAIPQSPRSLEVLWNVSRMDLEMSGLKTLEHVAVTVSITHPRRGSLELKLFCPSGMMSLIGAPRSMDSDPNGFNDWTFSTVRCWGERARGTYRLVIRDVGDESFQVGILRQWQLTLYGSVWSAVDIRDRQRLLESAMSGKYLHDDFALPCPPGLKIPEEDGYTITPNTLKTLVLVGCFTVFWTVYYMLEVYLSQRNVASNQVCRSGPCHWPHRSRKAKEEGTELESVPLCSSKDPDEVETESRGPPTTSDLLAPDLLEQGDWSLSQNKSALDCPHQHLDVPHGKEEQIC
# Chain of UniProt Q9NXA8 (whole entry, looked up): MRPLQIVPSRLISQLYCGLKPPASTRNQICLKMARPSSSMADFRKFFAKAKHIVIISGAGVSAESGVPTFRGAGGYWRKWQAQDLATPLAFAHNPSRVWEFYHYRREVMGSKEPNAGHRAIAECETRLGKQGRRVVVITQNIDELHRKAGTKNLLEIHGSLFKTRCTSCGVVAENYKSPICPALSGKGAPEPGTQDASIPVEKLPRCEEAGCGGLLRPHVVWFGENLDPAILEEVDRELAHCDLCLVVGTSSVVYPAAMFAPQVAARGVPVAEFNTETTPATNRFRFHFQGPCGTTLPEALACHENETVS
# Chain of UniProt P45983 (whole entry, looked up): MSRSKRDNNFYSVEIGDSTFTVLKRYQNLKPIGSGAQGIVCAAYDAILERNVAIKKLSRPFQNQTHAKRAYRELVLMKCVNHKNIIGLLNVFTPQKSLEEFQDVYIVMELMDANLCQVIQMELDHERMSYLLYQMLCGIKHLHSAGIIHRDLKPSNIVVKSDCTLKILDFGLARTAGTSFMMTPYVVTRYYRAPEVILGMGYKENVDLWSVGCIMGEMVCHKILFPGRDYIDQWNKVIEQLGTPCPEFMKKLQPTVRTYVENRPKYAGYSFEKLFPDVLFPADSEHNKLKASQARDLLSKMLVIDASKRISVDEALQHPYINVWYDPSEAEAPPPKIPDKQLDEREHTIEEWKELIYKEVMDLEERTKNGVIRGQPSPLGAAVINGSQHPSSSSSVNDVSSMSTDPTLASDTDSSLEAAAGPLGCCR
Structure (SMILES),target,read-out,mode,method,setting,together with,Ki
C=C1C[C@@]2(C(=O)OC)C=C(C(=O)Nc3cccc(C(=O)Nc4ccc(Nc5nccc(-c6cccnc6)n5)c(C)c4)c3)C(=O)[C@@H]1C2,"MAPK8 (Homo sapiens, UniProt P45983)",,,SPR two-step binding model,wild-type protein surface,,3.1 nM
CCOC(=O)C(CC)(CCCSCCOCCOCCOCCOCCN)NC(=O)c1ccc(C2CC2)c(Cc2ccc(F)cc2)n1 (stereo not drawn),CNR2,ligand displacement,,radioligand,cell membranes,,2.6 nM
CC(C)c1ccc(OS(=O)(=O)Oc2cncc(C(=O)NO)c2)cc1,HDAC11,,,,,,2080 nM
O=C1CCc2c(ccc3ccccc23)O1,cah,enzyme activity,inhibitor,stopped-flow,,,12700 nM
CC[C@H](C)[C@@H]1NC(=O)[C@H](Cc2ccccc2C(F)(F)F)NC(=O)CCSCc2cccc(n2)CSCCCNC(=O)[C@H](CCCCCC(=O)N(O)CCCCCCCl)NC1=O,HDAC11,enzyme activity,inhibitor,fluorescence,,,13 nM
CC(=O)N[C@@H](CC(C)C)C(=O)N[C@@H](CC(C)C)C(=O)N[C@@H](CC(C)C)C(=O)N[C@@H](CC(C)C)C(=O)N[C@@H](CCCNC(=N)N)C(=O)N[C@H](C(=O)N[C@@H](CCCCN)C(=O)N[C@@H](CCCNC(=N)N)C(N)=O)C(C)C,"Proprotein convertase subtilisin/kexin type 7 (Homo sapiens, UniProt Q16549)",enzyme activity,inhibitor,,,,1690 nM
CCOC(=O)C(CC)(CCCSCCOCCOCCN=[N+]=[N-])NC(=O)c1ccc(C2CC2)c(Cc2ccc(F)cc2)n1 (stereo not drawn),CNR2,ligand displacement,,radioligand,cell membranes,,60 nM
CC(=O)N[C@@H](CC(C)C)C(=O)NCC(=O)N[C@@H](CCCCNC(=O)CCC(=O)O)C(=O)Nc1ccc2c(C)cc(=O)oc2c1,"SIRT5 (Homo sapiens, UniProt Q9NXA8)",desuccinylation,substrate inhibition,,,,~700000 nM
O=C1CCCCO1,cah,enzyme activity,inhibitor,stopped-flow,,,67200 nM
CC(C)(COP(=O)(O)OP(=O)(O)OC[C@H]1O[C@@H](n2cnc3c(N)ncnc32)[C@H](O)[C@@H]1OP(=O)(O)O)[C@@H](O)C(=O)NCCC(=O)NCCSCC(=O)N[C@@H](CO)C(=O)NCC(=O)N[C@@H](CCCNC(=N)N)C(=O)NCC(=O)N[C@@H](CCCCN)C(=O)NCCCC[C@H](NC(=O)CC[C@@H]1NC(=O)[C@@H](CCCNC(=N)N)NC(=O)[C@H](CCCNC(=N)N)NC(=O)[C@@H](CCCNC(=N)N)NC(=O)[C@H](CCCNC(=N)N)NC(=O)[C@H](Cc2csc3ccccc23)NC(=O)[C@@H](Cc2ccccc2)NC(=O)[C@H](Cc2ccccc2)NC1=O)C(N)=O,NAA40,enzyme activity,inhibitor,fluorescence,,,39 nM
CCc1c(Cl)cccc1N1CCN(C[C@@H](F)CCNC(=O)c2cc3ccccc3[nH]2)CC1,DRD1,ligand displacement,,radioligand,cell membranes,,> 10000 nM
CCOC(=O)C(CC)(CCCSCCCCCCN)NC(=O)c1ccc(C2CC2)c(Cc2ccc(F)cc2)n1 (stereo not drawn),CNR2,ligand displacement,,radioligand,cell membranes,,2.7 nM
NC(=O)CNC(=O)[C@@H]1CCCN1C(=O)[C@H](Cc1ccc(O)cc1)NC(=O)[C@H](Cc1c[nH]c2ccccc12)NC(=O)CNC(=O)[C@H](Cc1c[nH]cn1)NC(=O)[C@H](CO)NC(=O)[C@H](Cc1c[nH]c2ccccc12)NC(=O)[C@H](Cc1c[nH]cn1)NC(=O)[C@@H]1CCC(=O)N1,"GNRHR (Homo sapiens, UniProt P30968, del191-191)",binding,,NanoBRET,,10 nM sCy5-D-Lys6-GnRH,21 ± 5.3 nM
CC[C@H]1CN([C@@H](CC)c2ccc(C(F)(F)F)cc2)[C@H](CC)CN1c1nc(=O)n(C)c2ccc(C#N)nc12,"DGKA (Homo sapiens, UniProt P23743)",enzyme activity,inhibitor,fluorescence,,,11 nM
NCCCC[C@H](NN)C(=O)O,"Inducible lysine decarboxylase (Hafnia alvei, UniProt G9Y9L1)",,,,,,5900 ± 1400 nM
O=C(NO)c1cncc(OS(=O)(=O)Oc2ccc(Oc3ccccc3)cc2)c1,HDAC11,,,,,,1490 nM
CCOC(=O)[C@@](CC)(CCCSCCOCCOCCNC(=O)OC(C)(C)C)NC(=O)c1ccc(C2CC2)c(Cc2ccc(F)cc2)n1,CNR2,ligand displacement,,radioligand,cell membranes,,151 nM
Cn1ccc2c(N3CCN(CCCCOc4ccc5c(c4)NC(=O)CC5)CC3)cccc21,"ADRA1D (Homo sapiens, UniProt P25100)",ligand displacement,,radioligand,,,2200 nM
Cc1nc(-c2c[nH]c(C(=O)Nc3ncccc3O)c2)cs1,"Serine protease 1 (PRSS1, Homo sapiens, UniProt P07477)",,mixed inhibitor,Z-GPR-pNA substrate,,,174000 nM and 234000 nM and 201000 nM
O=C1c2cc(O)cc(O)c2C(=O)c2c(O)cc(CO)cc21,MAOA,enzyme activity,inhibitor,,,,28800 nM
CCOC(=O)C(CC)(CCCSCCOCCNc1ccc([N+](=O)[O-])c2nonc12)NC(=O)c1ccc(C2CC2)c(Cc2ccc(F)cc2)n1 (stereo not drawn),CNR2,ligand displacement,,radioligand,cell membranes,,22 nM
COC1CN([C@H]2CC[C@H]([C@@]3(C)Oc4c(Cl)cc(C(=O)NCc5c(SC)cc(C)[nH]c5=O)c(C)c4O3)CC2)C1,"Histone-lysine N-methyltransferase EZH1, in PRC2 complex (EZH1, Homo sapiens, UniProt Q92800)",,,differential scanning fluorimetry,extrapolated from Tm,activator peptide,0.0067 nM
Cc1ccnc(OC[C@H]2CN(CCN3CCc4ccccc43)CCO2)c1,DRD1,binding,,,,[3H]SCH23390,> 10000 nM
CCCCCCC1CCCC(=O)O1 (stereo not drawn),cah,enzyme activity,inhibitor,stopped-flow,,,41800 nM
CCOC(=O)[C@](CC)(CCCSCCOCCOCCN)NC(=O)c1ccc(C2CC2)c(Cc2ccc(F)cc2)n1,CNR2,binding,,,,,2.7 ± 0.9 nM
CC(C)(COP(=O)(O)OP(=O)(O)OC[C@H]1O[C@@H](n2cnc3c(N)ncnc32)[C@H](O)[C@@H]1OP(=O)(O)O)[C@@H](O)C(=O)NCCC(=O)NCCSCCC(=O)N[C@@H](CO)C(=O)NCC(=O)N[C@@H](CCCNC(=N)N)C(=O)NCC(=O)N[C@@H](CCCCN)C(N)=O,NAA40,enzyme activity,inhibitor,fluorescence,,,46 nM
Cc1cc(O)c2c(c1)C(=O)c1cc(O)c(O)c(O)c1C2=O,MAOA,enzyme activity,inhibitor,,,,56500 nM
CC(C)(COP(=O)(O)OP(=O)(O)OC[C@H]1O[C@@H](n2cnc3c(N)ncnc32)[C@H](O)[C@@H]1OP(=O)(O)O)[C@@H](O)C(=O)NCCC(=O)NCCSCC(=O)N[C@@H](CO)C(=O)NCC(=O)N[C@@H](CCCNC(=N)N)C(=O)NCC(=O)N[C@@H](CCCCN)C(N)=O,NAA40,enzyme activity,inhibitor,fluorescence,,,58 nM
Cc1c(OS(=O)(=O)Oc2ccccc2-c2ccccc2)cccc1C(=O)NO,HDAC11,,,,,,272 nM
CCOC(=O)C(CC)(CCCSCCCCCCNC(=O)OC(C)(C)C)NC(=O)c1ccc(C2CC2)c(Cc2ccc(F)cc2)n1 (stereo not drawn),CNR2,ligand displacement,,radioligand,cell membranes,,140 nM

# Some of these lines once more:
Structure (SMILES),target,read-out,mode,method,setting,together with,Ki
O=C(NO)c1cncc(OS(=O)(=O)Oc2ccc(Oc3ccccc3)cc2)c1,HDAC11,,,,,,1490 nM
CCOC(=O)[C@@](CC)(CCCSCCOCCOCCNC(=O)OC(C)(C)C)NC(=O)c1ccc(C2CC2)c(Cc2ccc(F)cc2)n1,CNR2,ligand displacement,,radioligand,cell membranes,,151 nM
Cn1ccc2c(N3CCN(CCCCOc4ccc5c(c4)NC(=O)CC5)CC3)cccc21,"ADRA1D (Homo sapiens, UniProt P25100)",ligand displacement,,radioligand,,,2200 nM
